Assay results pooled from the literature.
Each line is one published result; not all experiments were run side by side. Values joined by “and” are separate records of one study, mostly repeats; a detail may differ. Numbers after ± are the reported error.

C[C@H]1CN(C2COC2)CCN1c1ccc(Nc2cc(-c3ccnc(N4CCn5c(cc6c5CC(C)(C)C6)C4=O)c3CO)cn(C)c2=O)nc1
IC50 (TMD8; calcium flux, FLIPR; 1 h preincubation, added: anti-IgM): 0.012 µM

COc1ccc2oc(C(=O)c3ccccc3)cc2c1-c1ccccc1
IC50 (FM3A; cell proliferation; 48 h): > 50 µM

C=CC(=O)Nc1cc(Nc2nccc(Nc3cc(Cl)c(F)cc3C(C)(C)O)n2)c(OC)cc1N1CC[C@@H](N(C)C)C1
IC50 (NCI-H2073 KI SVD; cell proliferation, CellTiter-Glo; 72 h): 0.021 µM

Cc1nc(NC(=O)N2CCC[C@H]2C(N)=O)sc1-c1ccnc(C(C)(C)C(F)(F)F)c1
IC50 (KYSE-510; growth rate inhibition, CellTiter-Glo; 120 h): 7.81 µM

COc1cnccc1Cn1nc(-c2ccc(CO)o2)c2ccccc21
IC50 (SNU-1079; cell viability, CellTiter-Glo): 0.17 µM

Cc1c(C)c2c(c(C)c1O)CCC(C)(COc1ccc(CC3SC(=O)NC3=O)cc1)O2 (centres unmarked)
IC50 (hepatocytes, iPSC-derived, line L3; cell viability, RealTime-Glo MT; 24 h, differentiation day 23): 70 µM

COc1ccccc1C(=O)c1cc2c(-c3ccccc3)c(OC)ccc2o1
IC50 (FM3A; cell proliferation; 48 h): > 50 µM

CCCCN1C[C@H](O)[C@@H](O)[C@@H](O)[C@H]1CO
IC50 (sample H patient fibroblasts; GlcCer level lowering, LC-MS/MS, item: GlcCer d18:1/24:1; 216 h): 21.1 µM

COC(=O)c1ccc(C(=O)COc2ccc(N3C(=O)[C@@H]4[C@@H]5C=C[C@@H]([C@H]6C[C@@H]56)[C@@H]4C3=O)cc2)cc1
IC50 (Mut6 cells; cell viability, CellTiter-Glo; 96 h): 1.93 µM

CC(=O)c1c(O)c(C)c(O)c2c1OC1=CC(=O)C(C(C)=O)C(=O)C12C (single isomer, unassigned; (+))
IC50 (hepatocytes, iPSC-derived, line L3; cell viability; 72 h): 31 µM

COc1cc(N2CCC(N3CCN(C)CC3)CC2)ccc1Nc1ncc(Cl)c(Nc2ccccc2S(=O)(=O)C(C)C)n1
IC50 (PDX-derived rhabdomyosarcoma cells; cell growth; 3 days): 1.3 ± 0.3 µM

COc1ccc(C(=O)c2cc3c(-c4ccccc4)c(O)ccc3o2)cc1
IC50 (FM3A; cell proliferation; 48 h): 1.9 µM

CCOc1cc([C@@H](CS(C)(=O)=O)N2C(=O)c3cccc(NC(C)=O)c3C2=O)ccc1OC
IC50 (human PBMC; cytokine release, item: TNF-α; 24 h, added: anti-CD28, and anti-CD3ε): 0.059 µM

OCc1ccc(-c2nn(Cc3ccccn3)c3cccnc23)o1
IC50 (SNU-1079; cell viability, CellTiter-Glo): 2.94 µM

c1csc(CNc2cc[nH]n2)c1
cells with structural aberrations (human peripheral blood lymphocytes (female); 1130 µg/mL, 4 h, initial, added: with S9): 0%

CC(C)C[C@H](NC(=O)C[C@H](O)[C@H](CC(C)C)NC(=O)[C@H](Cc1c[nH]cn1)NC(=O)CNC(=O)[C@@H](NC(=O)[C@H](C)NC(=O)[C@H](Cc1c[nH]c2ccccc12)NC(=O)[C@H](CCC(N)=O)NC(=O)[C@@H](Cc1ccccc1)NC(=O)COCCOCCNC(=O)CCC(C(=O)O)N1CCN(CC(=O)O)CCN(CC(=O)O)CCN(CC(=O)O)CC1)C(C)C)C(N)=O (some centres unmarked) [lutetium-177 labelled]
tissue uptake (female BALB/c nu/nu mice, stomach; intravenous, 100 pmol, 24 h, added: PA 300 µg): 0.06 ± 0.03 %ID/g

Cc1cc(C(=O)COc2ccc(N3C(=O)[C@@H]4[C@@H]5C=C[C@@H]([C@H]6C[C@@H]56)[C@@H]4C3=O)cc2)ccc1Cl
IC50 (Mut6 cells; cell viability, CellTiter-Glo; 96 h): 0.000791 µM

C=CC(=O)N1CCC[C@@H](c2ccc(C(N)=O)c3[nH]ccc23)C1
IC50 (TMD8; calcium flux, FLIPR; 1 h preincubation, added: anti-IgM): > 1 µM

NC(=O)c1cnc2[nH]ccc2c1N[C@@H]1[C@@H]2CC3C[C@H]1C[C@@](O)(C3)C2
percent change (CD8+ CD28+ naive T cells, flow cytometry; Caucasian humans, peripheral blood; 20 mg single dose; baseline: baseline): -0.5%

CCOC(=O)c1c(-c2ccc(OC)cc2)oc2ccc(O)c(CN3CCN(Cc4cn(C[C@H]5O[C@H](O[C@H]6O[C@H](CO)[C@@H](O)[C@H](O)[C@H]6O)[C@H](O)[C@@H](O)[C@@H]5O)nn4)CC3)c12
IC50 (J774.A1; cytotoxicity, resazurin; 18 h): > 200 µM

OCc1ccc(-c2nn(Cc3cccnc3)c3cccnc23)o1
IC50 (SNU-1079; cell viability, CellTiter-Glo): 8.29 µM

COc1cc2nc(N3CCN(C(=O)C4COc5ccccc5O4)CC3)nc(N)c2cc1OC (centres unmarked)
IC50 (TW01; MTT; 48 h): 24 ± 4.4 µM

CC(C)n1ncc2c(C(=O)NCC3(C)CNC3)cc(C3CC3)nc21
cell protection (coxsackievirus B3; CPE; Vero; 0.05 µM): 1.44% and -0.996%

C[C@@H]1CC[C@@H]([C@](C)(O)CNCc2cccc3ccccc23)[C@H](OCc2ccccc2)C1
IC50 (A2780; cell growth, inhibitor, MTT; 72 h): 13.7 µM

CC#CC(=O)N1CCC[C@H]1c1nc(-c2ccc(C(=O)Nc3ccccn3)cc2)c2c(N)nccn12
IC50 (TMD8; calcium flux, FLIPR; 4 h preincubation, added: anti-IgM): > 1 µM

C[C@H](Nc1ccc2c(c1)OCCn1cc(N3C(=O)OC[C@H]3C(F)F)nc1-2)C(N)=O
IC50 (BT-20; growth rate inhibition, CellTiter-Glo; 120 h): 0.697 µM

Cn1cc(-c2ccc(-c3cncc(Cl)c3N3CCC4(CCNC4=O)CC3)cc2)cn1
log2 fold change (COLO 205; gene expression, microarray, item: CCRL2 mRNA; concentration not given, 2 h; baseline: untreated cells): 2

C=CC(=O)N1CCC(Oc2cc3c(Nc4ccc(Cl)c(Cl)c4F)ncnc3cc2OC)CC1
IC50 (NCI-H2073 KI SVD; cell proliferation, CellTiter-Glo; 72 h): 0.000475 µM

N#Cc1ccc(Oc2ccc3c(c2)COB3O)cc1
IC50 (human PBMC; cytokine release, item: IL-10; 24 h, added: anti-CD28, and anti-CD3ε): 0.33 µM

COc1ccc(C(=O)NCc2ccc(N3C(=O)[C@@H]4[C@@H]5C=C[C@@H]([C@H]6C[C@@H]56)[C@@H]4C3=O)cc2)cc1
IC50 (Mut6 cells; cell viability, CellTiter-Glo; 96 h): 1.96 µM

CO[C@]12C[C@@H](COC(=O)c3cncc(Br)c3)CN(C)[C@@H]1Cc1cn(C)c3cccc2c13
IC50 (TW01; MTT; 48 h): 19.1 ± 8.7 µM

NCc1ccc(-c2nn(Cc3ccccc3)c3ccccc23)o1
IC50 (SNU-1079; cell viability, CellTiter-Glo): 2.62 µM

N#Cc1ccn2c(-c3ccncc3)c(-c3ccc(F)cc3)nc2c1
log2 fold change (orf19.4144 kinase Candida albicans; MIB/MS competition binding; Candida albicans cell lysate; 1 µM; baseline: DMSO, lower = stronger binding): 0.203

CN1CC(Oc2cnc(C#N)cc2-c2ccn3nc(NC(=O)C4CC4)cc3c2)C1
IC50 (human monocyte-derived macrophages; cytokine release, item: TNF; added: LPS): 3.82 µM

CN1CCC(NC2CCc3[nH]c4c(C(N)=O)ccc(-c5ccccc5Cl)c4c3C2)CC1 (centres unmarked)
IC50 (K562/DOX, doxorubicin-resistant; cell growth, CellTiter-Glo; 96 h): 0.0254 µM

O=C(O)COCC(=O)O
IC50 (hepatocytes, iPSC-derived, line L3; cell viability, RealTime-Glo MT; 48 h, differentiation day 23): 6660 µM

C[C@@H]1CC[C@@H]([C@@](O)(CNCc2cccc3ccccc23)COCc2ccccc2)[C@H](OCc2ccccc2)C1
IC50 (A2780; cell growth, inhibitor, MTT; 72 h): 4.06 µM

C=CC(=O)N1CCC([C@@H]2CCNc3c(C(N)=O)c(-c4ccc(Oc5ccccc5)cc4)nn32)CC1
IC50 (TMD8; calcium flux, FLIPR; 2 h preincubation, added: anti-IgM): 0.00238 µM

O=C(Nc1c(Cl)cncc1Cl)c1ccc(OC(F)F)c(OCC2CC2)c1
IC50 (human PBMC; cytokine release, item: TNF-α; 24 h, added: anti-CD28, and anti-CD3ε): 0.0013 µM

Nc1ncc(-c2cnn(C3CCNCC3)c2)cc1-c1nnc(CC2CC2)o1
IC50 (MOLM-13; cell viability; 72 h): 0.185 µM

CC1(C)COc2ccc(F)cc2CN2c3nc4c(cnn4cc3OC[C@H]2C(F)F)C(=O)N1
IC50 (Ba/F3 EML4-ALK v1, no mutation; cell viability): 0.0192 µM

CCc1cc(C(=O)NC)c2nccc(N3CCc4c(cc(Cn5ccnc5)cc4-c4cn(C)nc4C(F)(F)F)C3=O)c2c1
mean corpuscular haemoglobin (Sprague Dawley rats; oral, 100 mg/kg twice daily, 7 days): 19.9 ± 0.26 pg

OCc1ccc(-c2nn(Cc3ccncc3)c3ccccc23)o1
IC50 (SNU-1079; cell viability, CellTiter-Glo): 0.23 µM

Cc1cc(Nc2ncc(Cl)c(Nc3ccccc3S(=O)(=O)C(C)C)n2)c(OC(C)C)cc1C1CCNCC1
IC50 (Aska-SS (ALK exon 2-17 deletion); cell viability): 0.0291 µM

CC(C)c1ccccc1[C@@H]1CCCN1C1CC2(CCN(c3ccc(C(=O)NS(=O)(=O)c4ccc(NC[C@H]5CC[C@](C)(O)CC5)c([N+](=O)[O-])c4)c(Oc4cnc5[nH]ccc5c4)c3)CC2)C1
IC50 (KMS-12-PE; cell viability, CellTiter-Glo): 0.0016 ± 0.00051 µM

COc1ccc(COC[C@@](O)(CNCc2ccccc2)[C@@H]2CC[C@@H](C)C[C@H]2OCc2ccc(OC)cc2)cc1
IC50 (A2780; cell growth, inhibitor, MTT; 72 h): 1.64 µM

C=CC(=O)Nc1cc(Nc2nccc(-c3cn(C)c4ccccc34)n2)c(OC)cc1N(C)CCN(C)C
IC50 (Ba/F3 EGFR H773_V774insNPH; cell growth, CellTiter-Glo; 72 h): 0.0503 ± 0.00188 µM

CCn1ncc2c1-c1cnc(N)c(c1)O[C@H](C)c1cc(F)ccc1-c1nn(C)nc1C2
IC50 (NCI-H3122, EML4-ALK v1; cell viability): 0.011 µM

COc1cccc2c1C(=O)c1c(O)c3c(c(O)c1C2=O)C[C@@](O)(C(=O)CO)C[C@@H]3O[C@H]1C[C@H](N)[C@H](O)[C@H](C)O1
IC50 (A2780 cisplatin-resistant; cytotoxicity, WST-1; 72 h): 0.08 µM

C[C@@H]1CC[C@@H]([C@@](C)(O)Cn2cnc3ccccc32)[C@H](OCc2ccccc2)C1
IC50 (A2780; cell growth, inhibitor, MTT; 72 h): 10.9 µM

C[C@H]1Oc2cc(cnc2N)-c2c(nn(C)c2C#N)CN(C)C(=O)c2ccc(F)cc21
IC50 (Ba/F3 EML4-ALK v1, no mutation; cell viability): < 0.00364 µM

N#CC[C@H](C1CCCC1)n1cc(-c2ncnc3[nH]ccc23)cn1
IC50 (human PBMC; cytokine release, item: IFN-γ; 24 h, added: anti-CD28, and anti-CD3ε): 0.05 µM

CC(C)[C@H](NC(=O)[C@H](Cc1ccc(O)cc1)NC(=O)[C@H](Cc1ccc(O)cc1)NC(=O)[C@@H]1CCCN1C(=O)[C@H](CCC(=O)O)NC(=O)[C@H](CCC(=O)O)NC(=O)[C@H](Cc1c[nH]c2ccccc12)NC(=O)[C@@H]1CCCN1C(=O)[C@@H](NC(=O)[C@H](CCC(N)=O)NC(=O)c1ccc2c(c1)C(=O)OC21c2ccc(O)cc2Oc2cc(O)ccc21)C(C)C)C(=O)N[C@H](C(=O)N[C@@H](CCCCN)C(=O)N[C@@H](CCCCN)C(=O)N[C@@H](CO)C(=O)N[C@@H](CO)C(=O)NCC(=O)NCC(N)=O)C(C)C
total plasma concentration (human, plasma; intravenous infusion, 100 mg, predose 0 min, day 1): not detected

COc1cc(Cn2nc(-c3ccc(CO)o3)c3ccccc32)ccn1
IC50 (SNU-1079; cell viability, CellTiter-Glo): 0.41 µM

CC(C)(C[C@H]1CN(S(=O)(=O)c2cccc(C(F)(F)F)c2)c2cc(-c3cc(F)cc(OC(F)F)c3)ccc2O1)C(=O)O
IC50 (HCC70 and MDA-MB-468; cell growth, CellTiter-Glo; 96 h): ≥ 20 µM

COc1nc(OCc2cccc(-c3ccccc3)c2C)ccc1CNCCNC(C)=O
IC50 (human PBMC; cell viability, MTT): 3.4 µM

CNCc1ccc(-c2[nH]c3cc(F)cc4c3c2CCNC4=O)cc1
patients with adverse event (item: Dyspnea; human patients; oral, dose not given, all grades, all doses): 17.9%

CC(C)Oc1c(NC(=O)c2ccc(NC(=O)[C@H](CC(N)=O)NC(=O)c3ccc(NC(=O)c4ccc(C#N)cc4)cc3)cc2)ccc(C(=O)Nc2ccc(C(=O)O)cc2)c1O
concentration (Escherichia coli ATCC 25922; neutropenic male CD-1 mice, lung; iv then sc, 37.5 mg/kg/day, 24 h after infection, thigh infection model): 11.9 ± 4.7 ng/mL

Cc1c2ccnc(C(=O)N[C@H](C)CN(C)C)c2cc2c3cc(O)ccc3n(C)c12
IC50 (HEK293T (G4C2)66-No-ATG-GFP reporter; RAN translation of r(G4C2)exp, fluorescence reporter): 0.1 µM

Excerpt of the above:
C=CC(=O)Nc1cc(Nc2nccc(-c3cn(C)c4ccccc34)n2)c(OC)cc1N(C)CCN(C)C
IC50 (Ba/F3 EGFR H773_V774insNPH; cell growth, CellTiter-Glo; 72 h): 0.0503 ± 0.00188 µM

CCn1ncc2c1-c1cnc(N)c(c1)O[C@H](C)c1cc(F)ccc1-c1nn(C)nc1C2
IC50 (NCI-H3122, EML4-ALK v1; cell viability): 0.011 µM

COc1cccc2c1C(=O)c1c(O)c3c(c(O)c1C2=O)C[C@@](O)(C(=O)CO)C[C@@H]3O[C@H]1C[C@H](N)[C@H](O)[C@H](C)O1
IC50 (A2780 cisplatin-resistant; cytotoxicity, WST-1; 72 h): 0.08 µM
